Experimental data of several laboratories.
Compare with care: the assays were run in different laboratories. Values joined by “and” are separate records of one study, mostly repeats; a detail may differ. ± marks the error that the study gave.

Compound | target or system | assay | system | setting | how to read | measurement | value
Cc1cc(NC2CCN(C)CC2)ccc1-c1cc2c(N3CCC[C@H](C(=O)NCc4ccc(OC(F)(F)F)cc4)C3)ncnc2[nH]1 | NCI-H3122 | cell growth or viability, MTT |  | 0.008 µg/mL, 72 h |  | inhibition | 39.5%
Fc1cncc(-c2ccc3[nH]c4ncnc(N[C@H]5CC[C@H](N6CCOCC6)CC5)c4c3c2)c1 | U2932 | cell growth or viability, WST-1 |  | 72 h |  | GI50 | 8.7 µM
COC(=O)c1cc(NC2=NC(=O)C(=Cc3ccc(C)cc3)S2)ccc1OC(C)=O | MCF7 | GC-MS, measured: Glyceric acid |  | 1 µM | reference: DMSO | metabolite level | -0.05 fold change
Cc1[nH][n+]([Pt-2]([Cl])([n+]2[nH]c(C)c(CSCc3ccccc3)c2C)[n+]2[nH]c(C)c(CSCc3ccccc3)c2C)c(C)c1CSCc1ccccc1.[Cl-] | Jurkat | cytotoxicity |  |  | reference: IC50 HEK293 over IC50 Jurkat | selectivity index | 6.7
CN1CCCNC(=O)c2cccc(c2)C(=O)NCCCN(C)CCCNc2cccc3c2C(=O)c2cccc(c2C3=O)NCCC1 | SAS | RNA-Seq, measured: MACC1 mRNA |  | 1 µM, 6 h | reference: untreated cells | log2 fold change | -1.9
CC[C@H](C)[C@H](NC(=O)[C@H](Cc1ccccc1)NC(=O)[C@H](CCC(=O)O)NC(=O)[C@H](CCCCN)NC(=O)[C@H](C)NC(=O)[C@H](C)NC(=O)[C@H](CCC(N)=O)NC(=O)CNC(=O)[C@H](CCC(=O)O)NC(=O)[C@H](CC(C)C)NC(=O)[C@H](Cc1ccc(O)cc1)NC(=O)[C@H](CO)NC(=O)[C@H](CO)NC(=O)[C@@H](NC(=O)[C@H](CC(=O)O)NC(=O)[C@H](CO)NC(=O)[C@@H](NC(=O)[C@H](Cc1ccccc1)NC(=O)[C@@H](NC(=O)CNC(=O)[C@H](CCC(=O)O)NC(=O)[C@H](C)NC(=O)[C@@H](N)Cc1c[nH]cn1)[C@@H](C)O)[C@@H](C)O)C(C)C)C(=O)N[C@@H](C)C(=O)N[C@@H](Cc1c[nH]c2ccccc12)C(=O)N[C@@H](CC(C)C)C(=O)N[C@H](C(=O)N[C@@H](CCCCN)C(=O)NCC(=O)N[C@@H](CCCNC(=N)N)C(N)=O)C(C)C | GIPR and β2AR, mTurquoise, SYFP2, HeLa | TIRF microscopy |  | 1 µM |  | GIPR-β2AR subcellular localisation | no effect
COc1ccc(NC(=O)c2ccc3[nH]c(-c4ccc(N(C)C)cc4)nc3c2)cn1 | HCT116 | IncuCyte |  | concentration not given, 2 h |  | dead cell to confluence ratio | 2.67 and 0.872 and 2.97
Cn1ncc2cc(-c3cncc(Cl)c3N3CCC4(CCNC4=O)CC3)ccc21 | LS174T | gene expression, microarray, measured: RUNX1 mRNA |  | concentration not given, 24 h | reference: untreated cells | log2 fold change | 2.59
COc1ccccc1-c1ccncc1C(=O)Nc1nnc(OCc2ccc(Cl)cc2)s1 | DLD-1 BRCA2-/- |  |  | 4 µM, single replicate |  | colony count | 8 and 17 and 19 and 11 and 5 and 6
CSCC[C@H](NC(=O)[C@H](CCC(N)=O)NC(=O)[C@H](CCCCN)NC(=O)[C@H](CCCNC(=N)N)NC(=O)[C@H](Cc1ccc(O)cc1)NC(=O)[C@H](CCCNC(=N)N)NC(=O)[C@H](CO)NC(=O)[C@H](Cc1ccc(O)cc1)NC(=O)[C@H](CO)NC(=O)[C@H](CC(=O)O)NC(=O)[C@@H](NC(=O)[C@@H](N)Cc1ccccc1)[C@@H](C)O)C(=O)N[C@@H](C)C(=O)N[C@H](C(=O)N[C@@H](CCCCN)C(=O)N[C@@H](CCCCN)C(=O)N[C@@H](Cc1ccc(O)cc1)C(=O)N[C@@H](CC(C)C)C(=O)N[C@@H](C)C(=O)N[C@@H](C)C(=O)N[C@H](C(=O)N[C@@H](CC(C)C)C(=O)NCC(=O)N[C@@H](CCCCN)C(=O)N[C@@H](CCCNC(=N)N)C(=O)N[C@@H](Cc1ccc(O)cc1)C(=O)N[C@@H](CCCCN)C(=O)N[C@@H](CCC(N)=O)C(=O)N[C@@H](CCCCn1cc(C[C@H](NC(=O)CNC(=O)[C@H](CO)NC(=O)[C@H](CCCNC(=N)N)NC(=O)[C@H](CO)NC(=O)[C@H](CC(C)C)NC(=O)[C@H](CC(C)C)NC(=O)CNC(=O)[C@H](C)NC(=O)[C@H](CC(C)C)NC(=O)[C@H](CCCNC(=N)N)NC(=O)[C@H](Cc2c[nH]cn2)NC(=O)[C@@H](NC(=O)[C@@H](N)C(C)C)[C@@H](C)O)C(=O)N[C@H](C(=O)N[C@H](C(=O)N[C@@H](CCCCN)C(=O)N[C@@H](CC(N)=O)C(=O)N[C@@H](CC(N)=O)C(=O)N[C@@H](Cc2ccccc2)C(=O)N[C@H](C(=O)N2CCC[C@H]2C(=O)N[C@H](C(=O)N[C@@H](CC(N)=O)C(=O)N[C@H](C(=O)NCC(=O)N[C@@H](CO)C(=O)N[C@@H](CCCCN)C(=O)N[C@@H](C)C(=O)N[C@@H](Cc2ccccc2)C(N)=O)C(C)C)[C@@H](C)O)C(C)C)C(C)C)C(C)C)nn1)C(=O)N[C@H](C(=O)N[C@@H](CCCCN)C(=O)N[C@@H](CC(N)=O)C(=O)N[C@@H](CCCCN)C(N)=O)C(C)C)C(C)C)C(C)C | transfected COS-7 cells | cAMP accumulation, antagonist |  | added: PACAP-27 |  | A2 | 2570 nM
O=C(C[Se]C(=O)c1cccnc1Nc1cccc(C(F)(F)F)c1)Nc1cccc(C(F)(F)F)c1 | NCI60 prostate subpanel (PC-3, DU-145) | cell growth, inhibitor |  | five-dose |  | GI50 | 1.88 µM
Cc1cccc(-c2cccc(C)n2)n1.Cc1cccc(-c2cccc(C)n2)n1.F[P-](F)(F)(F)(F)F.F[P-](F)(F)(F)(F)F.[Ru+2].c1ccc2c(-c3nc4c5cccnc5c5ncccc5c4[nH]3)c3ccccc3cc2c1 | SK-MEL-28 |  |  | 1% O2, added: green light 523 nm, 100 J/cm2 | reference: dark over light EC50 | phototoxicity index | 4
CCNc1cc2c(cc1C)C1(c3cc(C)c(NCC)cc3O2)c2ccccc2C(=O)N1N=Cc1c[c-]c(-c2ccccn2)cc1.Cc1c(C)c(-c2ccc(-c3ccccc3)cc2)[c-](C)c1C.[Cl-].[Ir+3] | A549 | PI flow cytometry |  | 0.5 x IC50, 24 h |  | S phase cells | 30.19 ± 0.12%
CSC(=S)N/N=C(\C)c1ccc(Nc2nnc(-c3ccc(Cl)cc3)c3ccccc23)cc1 | HepG2 | cell growth or viability, MTT |  | 1.25 µM |  | cell death | 96.4%
COc1ccc2c(c1)c(CC(=O)[Se]CC(=O)Nc1cccc(C(F)(F)F)c1)c(C)n2C(=O)c1ccc(Cl)cc1 | NCI60 prostate subpanel (PC-3, DU-145) | total growth inhibition, inhibitor |  | five-dose |  | mean TGI | 3.54 µM
CC1(C)C[C@@H](Nc2cccc(-c3sc(C(=O)O)c(OCC(=O)O)c3Cl)c2)CCN1S(=O)(=O)Cc1cccc(NC(=O)CN2CCC(c3ccc4c(c3)oc(=O)n4C3CCC(=O)NC3=O)CC2)c1 (stereo partly drawn) | B16-F10 | HTRF, measured: phospho-STAT1 Tyr701 |  | 0.123 µM, added: IFN-γ | reference: min-max normalised | pSTAT1 level | 35.5% and 37.7% and 41.6% and 33.9% and 34.2% and 39.4%
Cc1cc(Cl)cc(-c2ccnc3cc(CN4C(=O)C5C(C4=O)C5(C)C)sc23)c1C[C@@H]1CNCCO1 (stereo partly drawn) | CHP-212 resistant subline R3 | annexin V/PI flow cytometry |  | 1 µM, 48 h |  | late apoptotic cells | 7.66% and 14.6% and 10.2%

Compound | target or system | assay | system | setting | how to read | measurement | value
Cc1cccc(-c2cccc(C)n2)n1.Cc1cccc(-c2cccc(C)n2)n1.F[P-](F)(F)(F)(F)F.F[P-](F)(F)(F)(F)F.[Ru+2].c1cc2ccc3ccc(-c4nc5c6cccnc6c6ncccc6c5[nH]4)c4ccc(c1)c2c34 | SK-MEL-28 |  |  | normoxia, added: blue light 453 nm, 100 J/cm2 | reference: dark over light EC50 | phototoxicity index | 13
O=C(C[Se]C(=O)c1ccc2ccccc2n1)Nc1cccc(C(F)(F)F)c1 | NCI60 prostate subpanel (PC-3, DU-145) | total growth inhibition, inhibitor |  | five-dose |  | mean TGI | 3.49 µM
CCOc1cncc(-c2ccc(NC(=O)C3(c4ccnc(NS(=O)(=O)C5CC5)n4)CCOCC3)nc2)n1 | SK-HEP1 | cell proliferation, CellTiter-Glo |  | 72 h |  | IC50 | 10 µM
COC1CN([C@H]2CC[C@H]([C@@]3(C)Oc4c(Cl)cc(C(=O)NCc5c(SC)cc(C)[nH]c5=O)c(C)c4O3)CC2)C1 |  | RNA-seq, measured: LZTFL1 mouse homolog | mouse, HT-1376 xenograft, whole blood | dose not given | reference: vehicle | log2 fold change | 0.0614
[Cl-].[Cl-].[Ru+2].c1ccc(-c2ccccn2)nc1.c1ccc(-c2ccccn2)nc1.c1ccc2cc3nc4c5cccnc5c5ncccc5c4nc3cc2c1 | SK-MEL-28 | photocytotoxicity |  | light 633 nm, oxygen 18.5% |  | EC50 | 0.612 ± 0.014 µM
CC(C)c1ccc(N(C)c2ccc3c(c2)OCC[C@H]3CNc2cnccc2C(=O)O)cc1 | TE-15 | cell viability, CellTiter-Glo |  | 7 days |  | IC50 | ≥ 10 µM
Cc1cc(NC2CCN(C)CC2)ccc1-c1cc2c(N3CCC[C@H](C(=O)N[C@H](C)c4ccccc4)C3)ncnc2[nH]1 | NCI-H3122 | cell growth or viability, MTT |  | 1 µg/mL, 72 h |  | inhibition | 80.5%
C1=[N+]2CCCC[N+]3=Cc4ccc5[n]4[Au-]23[n]2c1ccc2-c1nc2ccccc2nc1-5.F[P-](F)(F)(F)(F)F | SNB-19 | NCI60 five-dose screen |  |  |  | TGI | 4.64 -log M
CNS(=O)(=O)Nc1nccc(Cc2c(C)c3ccc(Oc4ncccc4F)cc3oc2=O)c1F | SNU-475 | cell viability |  | 7 days |  | IC50 | > 1 µM
CCN(CC)CC(=O)Nc1cccc(-n2cc(-c3ccc4ccc(-c5cn(-c6cccc(NC(=O)CN(CC)CC)c6)nn5)cc4c3)nn2)c1 | RCC4 | PCR angiogenesis array, measured: CXCL10 |  | 5 x IC50, 6 h, normoxia | reference: untreated | fold regulation | -1
CO[C@@H]1[C@@H](OC(N)=O)[C@@H](O)[C@H](Oc2ccc3c(O)c(NC(=O)c4ccc(O)c(CC=C(C)C)c4)c(=O)oc3c2C)OC1(C)C | DLD-1 BRCA2-/- |  |  | 150 µM, mean of replicates A, B | reference: untreated | colony survival | 0.326%
Nc1ncc(-c2cc(-c3cnn(CC(F)(F)F)c3)ncc2F)nc1C(=O)NC1CNCC(F)C1 (stereo not drawn) | SLK | KINOMEscan |  | 1 µM | reference: DMSO control | remaining binding | 22%
CC(C)Cc1ccc(C(C)C(=O)[Se]CC(=O)Nc2cccc(C(F)(F)F)c2)cc1 (stereo not drawn) | NCI60 prostate subpanel (PC-3, DU-145) | cell growth |  | 10 µM, 48 h, one-dose |  | mean growth percent | -80.5%
Cc1ncsc1-c1ccc(C(C)NC(=O)C2CC(O)CN2C(=O)C(NC(=O)CCCCCCCCCCN2CCCC(Nc3ncc(Cl)c(Nc4ccccc4S(=O)(=O)C(C)C)n3)C2)C(C)(C)C)cc1 (stereo not drawn) | 22Rv1 | RNA-seq, measured: SORBS2 mRNA |  | concentration not given | reference: DMSO | log2 fold change | -2
OCCCC(=C(c1ccc(O)cc1)c1ccc(O)cc1)[c-]1cccc1.[Fe+2].c1cc[cH-]c1 | NCI60 panel |  |  | 48 h, mean-graph midpoint |  | TGI | 3.19 µM
COC1=C2CC(C)CC(OC)C(O)C(C)C=C(C)C(OC(N)=O)C(OC)C=CC=C(C)C(=O)NC(=CC1=O)C2=O (stereo not drawn) | Rh30 | ChIP-seq, measured: H3K36me3 peak |  | concentration not given, RBFA intron | reference: untreated control | log fold change | -0.5

Some of these lines once more:
Compound | target or system | assay | system | setting | how to read | measurement | value
CO[C@@H]1[C@@H](OC(N)=O)[C@@H](O)[C@H](Oc2ccc3c(O)c(NC(=O)c4ccc(O)c(CC=C(C)C)c4)c(=O)oc3c2C)OC1(C)C | DLD-1 BRCA2-/- |  |  | 150 µM, mean of replicates A, B | reference: untreated | colony survival | 0.326%
Cc1cc(NC2CCN(C)CC2)ccc1-c1cc2c(N3CCC[C@H](C(=O)N[C@H](C)c4ccccc4)C3)ncnc2[nH]1 | NCI-H3122 | cell growth or viability, MTT |  | 1 µg/mL, 72 h |  | inhibition | 80.5%
